Measurements gathered from unrelated publications.
Lines come from different studies, so protocols differ. ± gives the spread as reported.

SMILES | organism | assay | system | conditions | IC50 [nM]
CS(=O)(=O)c1ccc(Nc2n[nH]c3nc(-c4ccccc4)nc(N)c23)cc1 | Human rhinovirus 8 | cytopathic effect, inhibitor | HeLa |  | 13800
Cc1nc(N(C)C(=O)Cc2ccc(-c3ccccn3)cc2)sc1S(N)(=O)=O | human alphaherpesvirus 1 |  | K26 GFP, 3D adult human skin submerged | 48 h | 240
Nc1nc(-c2ccc(F)cc2F)nc2[nH]nc(Nc3ccc(F)cc3)c12 | Human rhinovirus 8 | cytopathic effect, inhibitor | HeLa |  | 11000
c1ccc2c(Cc3c[nH]c4ccccc34)c[nH]c2c1 | Bifidobacterium longum | microbial growth, absorbance |  |  | > 50000
COc1ccc(-c2nc(N3CCOCC3)c3sc(CN(C)c4ncc(C(=O)NO)cn4)cc3n2)cn1 | human alphaherpesvirus 1 |  | K26 GFP, 3D adult human skin air-liquid interface | 48 h | 240
CCN(CC)CC#CCNc1ccnc2cc(Cl)ccc12 | Plasmodium falciparum | parasite growth | RF12 |  | 71
Nc1ccn([C@@H]2O[C@H](CO)[C@@H](O)C2(F)F)c(=O)n1 | human alphaherpesvirus 1 |  | K26 GFP, 3D adult human skin air-liquid interface | 48 h | 110
c1ccc(CC(c2c[nH]c3ccccc23)c2c[nH]c3ccccc23)cc1 | Bifidobacterium longum | microbial growth, absorbance |  |  | 29000
COC1C=COC2(C)Oc3c(C)c(O)c4c(c3C2=O)C2=NC3(CCN(CC(C)C)CC3)NC2=C(NC(=O)C(C)=CC=CC(C)C(O)C(C)C(O)C(C)C(OC(=O)Nc2cnccn2)C1C)C4=O (centres unmarked) | Mycobacteroides abscessus | bacterial growth | subsp. abscessus Bamboo |  | 18
O=C(Nc1ccc([N+](=O)[O-])cc1Cl)c1cc(Cl)ccc1O | human alphaherpesvirus 1 |  | K26 GFP, 3D adult human skin air-liquid interface | 48 h | 250
CCc1ccc(-c2nc(N)c3c(Nc4ccc(F)cc4)n[nH]c3n2)cc1 | Human rhinovirus 8 | cytopathic effect, inhibitor | HeLa |  | 570
c1ccc2c(Cc3c(-c4c[nH]c5ccccc45)[nH]c4ccccc34)c[nH]c2c1 | Bifidobacterium longum | microbial growth, absorbance |  |  | 49000
Cc1ccc(-c2nc(N)c3c(Nc4ccc(F)cc4)n[nH]c3n2)cc1 | Human rhinovirus 8 | cytopathic effect, inhibitor | HeLa |  | 1640
CC(=O)C(C)(c1c[nH]c2ccccc12)c1c[nH]c2ccccc12 | Bifidobacterium longum | microbial growth, absorbance |  |  | > 50000
COC1C=COC2(C)Oc3c(C)c(O)c4c(c3C2=O)C2=NC3(CCN(CC(C)C)CC3)NC2=C(NC(=O)C(C)=CC=CC(C)C(O)C(C)C(O)C(C)C(OC(=O)Nc2cccnn2)C1C)C4=O (centres unmarked) | Mycobacteroides abscessus | bacterial growth | subsp. massiliense 095 clinical isolate | mixed morphotype | 38
O=C(/C=C\n1cnc(-c2cc(C(F)(F)F)cc(C(F)(F)F)c2)n1)NNc1ccccn1 | human alphaherpesvirus 1 |  | K26 GFP, 3D adult human skin air-liquid interface | 48 h | 260
Nc1nc(-c2ccccc2)nc2[nH]nc(Nc3cccc(F)c3F)c12 | Human rhinovirus 8 | cytopathic effect, inhibitor | HeLa |  | 122000
CC1(C)CC(=O)c2c(C(F)(F)F)nn(-c3ccc(C(N)=O)c(N[C@H]4CC[C@H](O)CC4)c3)c2C1 | human alphaherpesvirus 1 | viral replication | K26 GFP-expressing, 3D neonatal skin, submerged | 48 h | 60 ± 70
Nc1nc(-c2ccccc2)nc2[nH]nc(Nc3c(F)cccc3F)c12 | Human rhinovirus 8 | cytopathic effect, inhibitor | HeLa |  | 12100
Cc1cccc(C)c1N(CC(=O)Nc1ccc(-c2ncon2)cc1)C(=O)C1CCS(=O)(=O)CC1 | human alphaherpesvirus 1 |  | K26 GFP, 3D adult human skin submerged | 48 h | 380
CNCc1ccc2c(c1)C[C@H](CNC(=N)N)[C@H]2NC(=O)C(=O)Nc1ccc(Cl)c(F)c1 | HIV-1 | viral infection | TZM-bl, CRF02_AG 263-8 Env pseudovirus |  | 4300
Nc1nc(-c2ccccc2)nc2[nH]nc(Nc3ccc(F)cc3)c12 | Human rhinovirus 8 | cytopathic effect, inhibitor | HeLa |  | 26500
COC(=O)C1=CO[C@@H](C)[C@@H]2Cn3ccc4c5ccccc5nc-4c3C[C@H]12 | Plasmodium falciparum | growth | 3D7 | 96 h | 166 ± 26

Some of these lines once more:
SMILES | organism | assay | system | conditions | IC50 [nM]
c1ccc2c(Cc3c(-c4c[nH]c5ccccc45)[nH]c4ccccc34)c[nH]c2c1 | Bifidobacterium longum | microbial growth, absorbance |  |  | 49000
COC(=O)C1=CO[C@@H](C)[C@@H]2Cn3ccc4c5ccccc5nc-4c3C[C@H]12 | Plasmodium falciparum | growth | 3D7 | 96 h | 166 ± 26
